Published values of several laboratories.
Numbered parts are unrelated; each lists some results of a single study. Substitutions count along the parent as printed.

Set 1 — technique: RNA Bind-n-Seq; molecule type: RNA; sample: in vitro; concentration: 365 nM; baseline: no-protein control; direction: higher = stronger binding; quantity: RBNS enrichment (R)
Target: RNA binding protein fox-1 homolog 2, RRM domain, GST-SBP tag (RBFOX2, Homo sapiens, UniProt O43251-10, residues 100-194)
Notes: natural RNA segment, single round, ends assumed
Constant ends, left off below: GGGAGUUCUACAGUCCGACGAUC … UGGAAUUCUCGGGUGCCAA
Residues (chain): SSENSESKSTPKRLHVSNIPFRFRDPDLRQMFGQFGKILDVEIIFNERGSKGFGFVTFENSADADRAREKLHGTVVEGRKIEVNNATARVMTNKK
CAUGCUCUGAGUCAGAACACACCAACGCUCUGCUGUGGCUCCUAGGGAAGCAUUCAUGGUCCUCUGUUAUCAGCAGGGGUUUAUGUCACUUGCUGUCCGGUUUCCUAGGG: 0.326
CCUUCAUGACGGGAACCUAAGGACGAAGCCUACAGGGGCAAGGGCCGCUUCGUAUUCCUGGAAGAAGGAAGGCAUAGGCUUCGGUUUUCCCCUCGGAAACUGCUUCUGCU: 0.411
AAAGUACUUUGUUAUAAAGUCUUGAUUUCAUCAUAAUUUGUUACAUUUGUCUAUAUUUCCUACGGUGCAUCUAUAAAGAGUGCACACACCUAUGGGAAACCUAGGUUUCA: 0.478
CUCUGUUUUGUGGACAGGCAGCAGCCUCCGUAGGCACCCGCACCCUGCCUUGCUGGAGGAGAUGGGAUGGGGCGGGAGGUGGCUUCACCAUAACUAUUUUUAAUAUGGGU: 0.412
AUUACCUUACUUAAGGAUAAUAGGACAAGACAAAUUACAGAUUGUCUCAGAGAAAACAAAUGAGUUACUCUCUCGGACAAGCUGUAGGUCCUACCUAAAUGUCCAGCAGG: 0.283
AGUCACUGAGCCAGACGGUCGGUUGGAACAUGAGACUCGAGGCUGAGCGUGGAUCUGAACACCACAGCCCCUGUACUUGGGUUGCCUCUUGUCCCUGAACUUCGUUGUAC: 0.317
CUUCCUGGUAGUUGUAAUGACCACUCCCAUAAGGGCUAUAACUGUUCUUCACAGGUGGCCCUGCUCAAAAUACAUCCUCUCUUUUCCCGUUCUAUCCCUACAUUCACAUC: 0.295
CCUCAGCGGCCGCCCCGGCUGUGCCCUUCCCUGCUCUCCCGCUCUCUCAGGCCUCGGAAGGAAGAUCGGUGGCUGCGAGCUGAACUAAGGAGUAGGGCCUGUGGCUCAGC: 0.308
GUCCAGAGACAGGUCUCAUGUGACACUGGACAACCCUGCCAUCACUAGCAUGUGAACCUGGUCCUAGUUGGAAACUCACCCAGCCUACCUUAGUACUAGUGUUUCCUACU: 0.593
UCCAAGGGACAUACACUGAAACAUACAGCUGUCUAGGUUAUAAAUGUGUAGGUCUACAACUGCUAGUCUAAAAACUGUUUGCACCGAGCCCUCUGAUCAGAGUGGAUGAG: 0.456
UGGGAGCAGAUGGCCUGCCUUUGGCUGAGAGGGCUACCUGCCCAGCCCCUCCCCCAACAAGAUCUCUUGGACUCAGGCCUCAGAGCCUGGCCUGGUUGUGAGUGUGUGUC: 0.442
AGAUUUUCUACUUGAAUAUUUUUAUGUUGUAGGAACCUCAGGAGGUCAGUGUUUACUGUUUUAUAUAUGCCUUCUUUUUCCUGUUUGAGCUUCUCUCUCUGAAGGAUUCU: 0.327

Set 2 — target: CCNA2, cyclin fold, Cln2 fusion (human); technique: yeast growth competition, sequencing; sample: yeast; notes: strong parent motif; baseline: not given; direction: higher = stronger binding; quantity: normalised enrichment score
Starting sequence: SAMHD1 docking peptide (human); ASKSRVQLFKDDP
S4K: 0.536
S2Q: 2.57
S4L: 1.54
S4W: 3.66
F9R: -0.077
F9P: 0.256
K10N: 1.77
K3W: 0.722
F9T: -0.231
V6D: -0.167
Q7N: 0.98
D11C: 2.18
R5V: 0.72
K10P: 3.43
S2K: 3.1
S4Q: 0.369
K10M: 2.2
R5M: -0.106
S2W: 2.26

Set 3 — target: UBE2L6 UBC core domain (UniProt O14933); technique: yeast two-hybrid; sample: yeast; notes: mostly zero background; baseline: not given; direction: higher = stronger interaction; quantity: lacZ reporter activity
B1: RMND5B RING domain (UniProt Q96G75); chain MKCWYHSVFACPILRQQTSDSNPPIKLICGHVISRDALNKLINGGKLKCPYCPMEQNPADGK
B2: RFPL3 RING domain (UniProt O75679); chain MAALFQEASSCPVCSDYLEKPMSLECGCTVCLKCINSLQKEPHGEDLLCCCCSMVSQRNKIRP
B3: TRIM47 RING domain (UniProt Q96LD4); chain MDGSGPFSCPICLEPLREPVTLPCGHNFCLACLGALWPHRGASGAGGPGGAARCPLCQEPFPDGLQLR
B4: CBLL1 RING domain (UniProt Q75N03); chain GEKDDTPVHFCDKCGLPIKIYGRMIPCKHVFCYDCAILHEKKGDKMCPGCSDPVQRIEQCT
B5: ARIH1 RING domain (UniProt Q9Y4X5); chain NTRSSAQDMPCQICYLNYPNSYFTGLECGHKFCMQCWSEYLTTKIMEEGMGQTISCPAHGCDILVDDNTVM
B6: RNF32 RING domain (UniProt Q9H0A6); chain VQALRRETHECSICLAPLSAAGGQRVGAGRRSREMALLSCSHVFHHACLLALEEFSVGDRPPFHACPLCRSCYQKKILEC
B7: TRIM74 RING domain (UniProt Q86UV6); chain SLLELEDWLQCPICLEVFKESLMLQCGHSYCKGCLVSLSYHLDTKVRCPMCWQVVDGSSSLP
B8: TRIM32 RING domain (UniProt Q13049); chain NLDALREVLECPICMESFTEEQLRPKLLHCGHTICRQCLEKLLASSINGVRCPFCSKITRITSLTQ
B9: TRIM28 RING domain (UniProt Q13263); chain GAEALELLEHCGVCRERLRPEREPRLLPCLHSACSACLGPAAPAAANSSGDGGAAGDGTVVDCPVCKQQCFSKDIVE
B10: TRIM2 RING domain (UniProt Q9C040); chain VRQIDKQFLICSICLERYKNPKVLPCLHTFCERCLQNYIPAHSLTLSCPVCRQTSILPEKGV
B11: MARCHF2 RING domain (UniProt Q9P0N8); chain RLLSTVIRALDTPSDGPFCRICHEGANGECLLSPCGCTGTLGAVHKSCLEKWLSSSNTSYCELCHTEFAVEKRPRPLTEWL
Target sequence (chain): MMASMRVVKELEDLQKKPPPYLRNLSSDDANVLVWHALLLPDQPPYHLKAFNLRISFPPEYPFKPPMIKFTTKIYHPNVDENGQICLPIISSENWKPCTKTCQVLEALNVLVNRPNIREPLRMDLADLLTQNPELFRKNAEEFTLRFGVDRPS
B1 (RMND5B RING domain): 0
B2 (RFPL3 RING domain): 0
B3 (TRIM47 RING domain): 0
B4 (CBLL1 RING domain): 0
PLRRLQEEKLCKICMDRHIAVVFIPCGHLVTCKQCAEAVDRCPMCSAVIDFKQRVF (BIRC8 RING domain (UniProt Q96P09)): 0
SNNDLASLFECPVCFDYVLPPILQCQSGHLVCSNCRPKLTCCPTCRGPLGSIRNLA (SIAH1 RING domain (UniProt Q8IUQ4)): 0
MEEMEEELKCPVCGSFYREPIILPCSHNLCQACARNILVQTPESESPQSHRAAGSGVSDY (TRIM9 RING domain (UniProt Q9C026)): 0
FLSKVEETFQCICCQELVFRPITTVCQHNVCKDCLDRSFRAQVFSCPACRYDLGRSYAMQ (UHRF1 RING domain (UniProt Q96T88)): 0
B5 (ARIH1 RING domain): 0
B6 (RNF32 RING domain): 0
B7 (TRIM74 RING domain): 0
B8 (TRIM32 RING domain): 0
EIKDYKARLTCPCCNMRKKDAVLTKCFHVFCFECVKTRYDTRQRKCPKCNAAFGANDFHR (RNF20 RING domain (UniProt Q5VTR2)): 0
KITELNPHLMCALCGGYFIDATTIVECLHSFCKTCIVRYLETNKYCPMCDVQVHKTRPLL (PCGF2 RING domain (UniProt P35227)): 0
B9 (TRIM28 RING domain): 0
B10 (TRIM2 RING domain): 0
B11 (MARCHF2 RING domain): 0
EDVLSKDAGECAICLEELQQGDTIARLPCLCIYHKGCIDEWFEVNRSCPEHPSD (ZNRF2 RING domain (UniProt Q8NHG8)): 0

Set 4 — technique: aptamer microarray, sandwich; molecule type: DNA with 2'F-ANA; sample: in vitro; concentration: 200 nM; with: Cy3 exosite-II aptamer, 400 nM; direction: higher = stronger binding; quantity: mean fluorescence intensity; strand: GGTTGGTGTGGTTGG
Target: Prothrombin, mature alpha-thrombin (F2, Homo sapiens, UniProt P00734)
Notes: whole 15-mer aptamer, many near background
2'F-ANA at 5 6 7 8 10 14 15: 48.4 a.u.
2'F-ANA at 1 2 6 8 10 13 14: 47.3 a.u.
2'F-ANA at 1 4 6 7 9 10 11 15: 52.7 a.u.
2'F-ANA at 3 4 8 9 11 12 13 14: 290 a.u.
2'F-ANA at 3 4 7 9 10 13: 265 a.u.
2'F-ANA at 1 2 5 6 9 10 12 13 15: 46.5 a.u.
2'F-ANA at 1 2 4 5 8 9 11 14: 45.6 a.u.
2'F-ANA at 1 2 4 11 12 14 15: 54.9 a.u.
2'F-ANA at 2 5 6 7 8 9 10 12 13 15: 59.8 a.u.
2'F-ANA at 4 5 6 7 8 9 10 11 13 15: 62.9 a.u.
2'F-ANA at 7 8 9 11 12 13: 635 a.u.
2'F-ANA at 3 6 7 8 10 11 13 15: 411 a.u.
2'F-ANA at 1 4 6 8 11 13: 90.7 a.u.
2'F-ANA at 3 9 10 11 13 14 15: 381 a.u.
2'F-ANA at 1 2 3 6 8 9 10 11 13 14 15: 70.7 a.u.
2'F-ANA at 3 10 13 14: 429 a.u.
2'F-ANA at 1 3 7 13 14 15: 87.1 a.u.
2'F-ANA at 1 2 4 6 8 10 12: 59.6 a.u.
2'F-ANA at 2 4 5 8 9 10 11 13 14 15: 188 a.u.
2'F-ANA at 2 6 9 11 12 14: 152 a.u.
2'F-ANA at 3 5 7 8 11 13: 118 a.u.
2'F-ANA at 4 5 6 7 10 14: 43.8 a.u.

Some of these lines once more (set 3):
EIKDYKARLTCPCCNMRKKDAVLTKCFHVFCFECVKTRYDTRQRKCPKCNAAFGANDFHR (RNF20 RING domain (UniProt Q5VTR2)): 0
B10 (TRIM2 RING domain): 0
FLSKVEETFQCICCQELVFRPITTVCQHNVCKDCLDRSFRAQVFSCPACRYDLGRSYAMQ (UHRF1 RING domain (UniProt Q96T88)): 0
KITELNPHLMCALCGGYFIDATTIVECLHSFCKTCIVRYLETNKYCPMCDVQVHKTRPLL (PCGF2 RING domain (UniProt P35227)): 0
B1 (RMND5B RING domain): 0
MEEMEEELKCPVCGSFYREPIILPCSHNLCQACARNILVQTPESESPQSHRAAGSGVSDY (TRIM9 RING domain (UniProt Q9C026)): 0
B3 (TRIM47 RING domain): 0
B8 (TRIM32 RING domain): 0
